# Experimental data gathered from unrelated publications.
# Parts stem from different laboratories: compare values within a part only.
# Chain of UniProt P08912 (whole entry, looked up): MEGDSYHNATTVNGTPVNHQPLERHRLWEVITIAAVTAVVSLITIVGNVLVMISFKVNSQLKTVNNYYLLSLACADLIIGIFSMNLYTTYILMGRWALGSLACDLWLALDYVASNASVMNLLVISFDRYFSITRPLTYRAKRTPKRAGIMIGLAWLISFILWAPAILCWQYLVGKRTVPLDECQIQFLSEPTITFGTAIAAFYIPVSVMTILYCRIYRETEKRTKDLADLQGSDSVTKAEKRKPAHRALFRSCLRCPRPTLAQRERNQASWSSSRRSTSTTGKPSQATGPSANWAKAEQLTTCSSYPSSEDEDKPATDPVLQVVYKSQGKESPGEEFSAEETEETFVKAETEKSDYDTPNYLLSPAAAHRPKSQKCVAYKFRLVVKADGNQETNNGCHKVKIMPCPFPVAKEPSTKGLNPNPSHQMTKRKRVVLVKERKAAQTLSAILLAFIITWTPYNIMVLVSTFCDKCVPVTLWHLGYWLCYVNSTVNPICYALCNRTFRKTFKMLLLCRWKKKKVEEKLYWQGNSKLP
# Chain of UniProt P07550 (whole entry, looked up): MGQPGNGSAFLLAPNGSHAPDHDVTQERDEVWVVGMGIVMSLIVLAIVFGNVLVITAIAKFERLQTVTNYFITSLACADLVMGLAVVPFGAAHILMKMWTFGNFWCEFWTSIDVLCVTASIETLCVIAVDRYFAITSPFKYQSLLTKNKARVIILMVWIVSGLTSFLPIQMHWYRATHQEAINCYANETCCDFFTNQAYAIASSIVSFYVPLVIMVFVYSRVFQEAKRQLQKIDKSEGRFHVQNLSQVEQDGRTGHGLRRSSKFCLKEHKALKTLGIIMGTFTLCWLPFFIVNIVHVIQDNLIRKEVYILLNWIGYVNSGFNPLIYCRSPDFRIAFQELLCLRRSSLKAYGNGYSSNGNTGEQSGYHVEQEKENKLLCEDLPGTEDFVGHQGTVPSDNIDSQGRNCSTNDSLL
# Chain of UniProt P25100 (whole entry, looked up): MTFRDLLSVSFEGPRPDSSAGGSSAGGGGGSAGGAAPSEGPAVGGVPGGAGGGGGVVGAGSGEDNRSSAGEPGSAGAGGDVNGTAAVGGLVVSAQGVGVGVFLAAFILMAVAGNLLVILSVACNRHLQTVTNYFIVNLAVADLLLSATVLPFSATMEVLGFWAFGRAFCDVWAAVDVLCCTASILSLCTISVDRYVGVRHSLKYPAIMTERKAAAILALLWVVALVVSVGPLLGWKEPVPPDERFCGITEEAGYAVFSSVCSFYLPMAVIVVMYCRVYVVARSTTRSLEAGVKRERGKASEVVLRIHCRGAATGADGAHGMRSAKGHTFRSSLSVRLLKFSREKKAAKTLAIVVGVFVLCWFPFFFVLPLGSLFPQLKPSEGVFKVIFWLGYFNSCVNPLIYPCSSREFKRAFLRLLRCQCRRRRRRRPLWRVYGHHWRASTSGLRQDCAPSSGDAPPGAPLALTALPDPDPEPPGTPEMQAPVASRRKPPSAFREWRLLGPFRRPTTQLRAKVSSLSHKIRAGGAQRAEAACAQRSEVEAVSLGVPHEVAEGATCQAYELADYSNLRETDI
# Chain of UniProt P50406 (whole entry, looked up): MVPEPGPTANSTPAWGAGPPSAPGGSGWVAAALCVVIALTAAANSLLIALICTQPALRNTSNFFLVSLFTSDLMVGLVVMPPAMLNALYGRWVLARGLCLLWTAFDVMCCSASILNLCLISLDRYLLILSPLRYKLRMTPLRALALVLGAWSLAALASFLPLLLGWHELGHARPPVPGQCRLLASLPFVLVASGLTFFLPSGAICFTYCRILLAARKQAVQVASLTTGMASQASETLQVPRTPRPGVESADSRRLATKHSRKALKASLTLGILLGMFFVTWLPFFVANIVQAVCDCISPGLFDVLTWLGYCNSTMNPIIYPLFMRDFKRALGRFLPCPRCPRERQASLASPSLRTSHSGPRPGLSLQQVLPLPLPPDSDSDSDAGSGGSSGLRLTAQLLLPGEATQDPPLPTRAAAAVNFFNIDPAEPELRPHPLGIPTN
# Chain of UniProt P18825 (whole entry, looked up): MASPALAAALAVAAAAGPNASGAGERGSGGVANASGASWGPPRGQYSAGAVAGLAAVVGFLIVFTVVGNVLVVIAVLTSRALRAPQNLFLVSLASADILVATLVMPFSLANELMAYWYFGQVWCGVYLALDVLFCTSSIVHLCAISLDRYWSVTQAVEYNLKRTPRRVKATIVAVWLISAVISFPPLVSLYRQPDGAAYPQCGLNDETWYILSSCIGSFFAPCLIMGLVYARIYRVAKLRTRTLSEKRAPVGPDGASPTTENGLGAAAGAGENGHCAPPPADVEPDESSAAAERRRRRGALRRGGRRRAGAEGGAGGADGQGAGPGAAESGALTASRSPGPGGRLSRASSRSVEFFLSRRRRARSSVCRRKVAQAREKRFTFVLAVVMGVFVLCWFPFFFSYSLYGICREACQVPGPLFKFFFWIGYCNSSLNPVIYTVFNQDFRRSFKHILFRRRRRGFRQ
# Chain of UniProt P35367 (whole entry, looked up): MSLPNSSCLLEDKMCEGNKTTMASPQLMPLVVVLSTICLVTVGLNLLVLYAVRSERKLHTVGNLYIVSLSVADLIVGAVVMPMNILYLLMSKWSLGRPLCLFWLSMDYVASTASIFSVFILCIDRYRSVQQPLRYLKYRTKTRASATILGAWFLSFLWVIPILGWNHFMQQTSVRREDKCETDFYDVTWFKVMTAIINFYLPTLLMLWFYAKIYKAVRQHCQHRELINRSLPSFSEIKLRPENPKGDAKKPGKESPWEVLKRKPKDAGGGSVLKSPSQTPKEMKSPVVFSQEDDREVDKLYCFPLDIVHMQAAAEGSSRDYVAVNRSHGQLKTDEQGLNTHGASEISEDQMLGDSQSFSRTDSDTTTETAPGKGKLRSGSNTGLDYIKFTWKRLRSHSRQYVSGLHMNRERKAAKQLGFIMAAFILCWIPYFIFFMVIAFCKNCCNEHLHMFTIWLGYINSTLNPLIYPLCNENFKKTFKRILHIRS
# Chain of UniProt Q9H3N8 (whole entry, looked up): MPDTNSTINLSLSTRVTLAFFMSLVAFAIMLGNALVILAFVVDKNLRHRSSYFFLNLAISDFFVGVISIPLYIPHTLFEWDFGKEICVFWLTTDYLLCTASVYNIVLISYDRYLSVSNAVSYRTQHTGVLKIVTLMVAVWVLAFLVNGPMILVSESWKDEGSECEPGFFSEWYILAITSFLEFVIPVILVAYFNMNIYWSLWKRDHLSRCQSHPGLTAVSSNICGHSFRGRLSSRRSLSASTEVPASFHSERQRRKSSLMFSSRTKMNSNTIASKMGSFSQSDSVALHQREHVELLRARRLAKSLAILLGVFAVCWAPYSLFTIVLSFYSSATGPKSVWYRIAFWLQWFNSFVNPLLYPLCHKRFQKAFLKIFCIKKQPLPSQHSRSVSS
# Chain of UniProt Q5BJF2 (whole entry, looked up): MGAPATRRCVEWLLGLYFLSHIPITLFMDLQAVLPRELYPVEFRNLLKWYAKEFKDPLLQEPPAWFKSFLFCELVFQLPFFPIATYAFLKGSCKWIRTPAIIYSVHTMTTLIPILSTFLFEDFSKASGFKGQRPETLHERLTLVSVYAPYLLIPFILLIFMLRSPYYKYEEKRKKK
# Chain of UniProt P08913 (whole entry, looked up): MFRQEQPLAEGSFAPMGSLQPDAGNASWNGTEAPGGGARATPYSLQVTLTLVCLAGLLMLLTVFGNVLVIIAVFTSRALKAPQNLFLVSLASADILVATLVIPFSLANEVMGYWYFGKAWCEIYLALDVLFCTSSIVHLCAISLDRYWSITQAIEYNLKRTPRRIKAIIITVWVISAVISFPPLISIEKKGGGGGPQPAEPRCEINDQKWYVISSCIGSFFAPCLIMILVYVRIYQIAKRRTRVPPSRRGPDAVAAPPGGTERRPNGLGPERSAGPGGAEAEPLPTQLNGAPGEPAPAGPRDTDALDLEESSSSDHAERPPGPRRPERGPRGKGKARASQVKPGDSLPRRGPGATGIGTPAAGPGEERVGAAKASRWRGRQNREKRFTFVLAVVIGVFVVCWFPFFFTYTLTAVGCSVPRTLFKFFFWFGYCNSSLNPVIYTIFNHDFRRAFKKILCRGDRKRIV

# Block 1
# Compound: O=C(O)[C@H]1[C@H](Cn2nnc3ccccc3c2=O)CC[C@@H]1C(=O)c1ccc(OCCC2CCOCC2)cc1
# Effect on: ligand displacement
# Concentration: 10 µM
target,inhibition [%]
"Muscarinic acetylcholine receptor M5 (CHRM5, Homo sapiens, UniProt P08912)",4.3
"Alpha-1B adrenergic receptor (ADRA1B, Homo sapiens, UniProt P35368)",7.47
"5-hydroxytryptamine receptor 7 (HTR7, Homo sapiens, UniProt P34969)",-3.55
"Alpha-1D adrenergic receptor (ADRA1D, Homo sapiens, UniProt P25100)",0.59
"Beta-2 adrenergic receptor (ADRB2, Homo sapiens, UniProt P07550)",8.44
"Sigma intracellular receptor 2 (TMEM97, Homo sapiens, UniProt Q5BJF2)",28.5
"Sigma non-opioid intracellular receptor 1 (SIGMAR1, Homo sapiens, UniProt Q99720)",6.09
"D(4) dopamine receptor (DRD4, Homo sapiens, UniProt P21917)",12.5
"5-hydroxytryptamine receptor 6 (HTR6, Homo sapiens, UniProt P50406)",16.6
"Histamine H1 receptor (HRH1, Homo sapiens, UniProt P35367)",-8.85
"Alpha-2C adrenergic receptor (ADRA2C, Homo sapiens, UniProt P18825)",8.3
"Muscarinic acetylcholine receptor M2 (CHRM2, Homo sapiens, UniProt P08172)",1.41
"Alpha-2A adrenergic receptor (ADRA2A, Homo sapiens, UniProt P08913)",-5.14
"Histamine H4 receptor (HRH4, Homo sapiens, UniProt Q9H3N8)",1.99

# Block 2
# Target: Beta-1 adrenergic receptor (ADRB1, Homo sapiens, UniProt P08588)
# Chain of UniProt P08588 (whole entry, looked up): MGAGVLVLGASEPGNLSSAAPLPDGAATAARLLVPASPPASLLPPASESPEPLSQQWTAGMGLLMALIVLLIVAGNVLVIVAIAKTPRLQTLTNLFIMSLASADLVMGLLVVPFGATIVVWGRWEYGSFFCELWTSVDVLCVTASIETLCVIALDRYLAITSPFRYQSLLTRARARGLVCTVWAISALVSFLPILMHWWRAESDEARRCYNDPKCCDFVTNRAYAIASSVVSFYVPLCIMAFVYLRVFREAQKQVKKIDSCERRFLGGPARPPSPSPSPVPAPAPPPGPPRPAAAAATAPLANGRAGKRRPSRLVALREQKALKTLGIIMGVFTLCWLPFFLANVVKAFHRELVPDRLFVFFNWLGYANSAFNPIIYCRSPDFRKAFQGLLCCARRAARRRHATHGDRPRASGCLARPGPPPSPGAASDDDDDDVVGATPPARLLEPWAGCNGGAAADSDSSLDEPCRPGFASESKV
# Action: antagonist
SMILES,IC50 [µM]
OC(COc1ccccc1CNCC1CCOCC1)CN1CCSCC1 (stereo not shown),≥ 100
Cc1nc(N)sc1-c1ccnc(Nc2ccc(N3CCOCC3)cc2)n1,≥ 100
Cc1noc2c(-c3cnn(C)c3)cc(-c3cccs3)nc12,≥ 100
Cc1noc2c(N(C)C)cc(-c3ccsc3)nc12,≥ 100
c1ccc2nc(N3CCCC(COc4ccncc4)C3)ccc2c1 (stereo not shown),≥ 100
CCc1nc(Nc2cccc(C(O)CO)c2)c2ccsc2n1 (stereo not shown),≥ 100
CCN1C(=O)COC[C@@H]1[C@H](O)c1ccc(NC(=O)CCc2ccccc2)cc1,≥ 100
CC1(C)CC(=O)c2cc(C(=O)Nc3cccc4ccccc34)c(O)nc2C1,≥ 100
COc1ccccc1N1CCN(C(C)C(=O)Nc2ccc(F)cc2)CC1 (stereo not shown),≥ 100
CCOc1ccc(C(=O)N2CCN(c3ccccc3OC)CC2)cc1,≥ 100
O=C(Nc1ccccc1OC(F)(F)F)c1sc2cc(F)ccc2c1Cl,≥ 100

# Block 3
# Target: Calcium/calmodulin-dependent protein kinase type II subunit alpha (CAMK2A, Homo sapiens, UniProt Q9UQM7)
# Chain of UniProt Q9UQM7 (whole entry, looked up): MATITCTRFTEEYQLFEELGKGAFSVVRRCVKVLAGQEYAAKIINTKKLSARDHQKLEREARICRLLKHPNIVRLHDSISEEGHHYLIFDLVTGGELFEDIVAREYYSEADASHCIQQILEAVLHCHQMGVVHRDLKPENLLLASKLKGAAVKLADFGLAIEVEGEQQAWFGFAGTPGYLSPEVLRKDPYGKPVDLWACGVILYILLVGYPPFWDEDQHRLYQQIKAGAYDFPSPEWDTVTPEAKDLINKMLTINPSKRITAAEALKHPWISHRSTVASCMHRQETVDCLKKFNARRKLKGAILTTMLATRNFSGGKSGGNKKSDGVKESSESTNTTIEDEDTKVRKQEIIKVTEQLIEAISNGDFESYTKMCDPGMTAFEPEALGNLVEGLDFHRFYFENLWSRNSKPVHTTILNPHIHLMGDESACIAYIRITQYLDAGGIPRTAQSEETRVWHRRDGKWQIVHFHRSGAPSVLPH
# Effect on: enzyme activity
# Action: inhibitor
# Concentration: 10 µM
Compound,inhibition [%]
Cc1ccc(C(C)C)cc2c(C)ccc1-2,26
CN(CCOc1ccc(NS(C)(=O)=O)cc1)CCc1ccc(NS(C)(=O)=O)cc1,2
Cc1ccsc1C(=CCCN1CCC[C@@H](C(=O)O)C1)c1sccc1C,-4
CCOc1nc2cccc(C(=O)O)c2n1Cc1ccc(-c2ccccc2-c2nnn[nH]2)cc1,-2
COc1ccc(/C=C/C(=O)O[C@@H]2[C@H](O[C@@H]3O[C@@H](C)[C@H](O)[C@@H](O)[C@H]3O)[C@@H](O[C@@H]3O[C@@H](C)[C@H](O[C@@H]4OC[C@@H](O[C@@H]5O[C@H](CO)[C@H](O)[C@H](O)[C@H]5O)[C@H](O)[C@H]4O)[C@@H](O)[C@H]3O)[C@H](OC(=O)[C@]34CCC(C)(C)C[C@H]3C3=CC[C@@H]5[C@@]6(C)C[C@H](O)[C@H](O[C@@H]7O[C@H](CO)[C@@H](O)[C@H](O)[C@H]7O)[C@@](C)(C(=O)O)[C@@H]6CC[C@@]5(C)[C@]3(CO)CC4)O[C@@H]2C)cc1,27
CC(C)C(=O)OC[C@H]1O[C@@H](n2ccc(NO)nc2=O)[C@H](O)[C@@H]1O,-3
COc1c(O)cc2oc3cc4c(c(O)c3c(=O)c2c1CC=C(C)C)CCC(C)(C)O4,-19
Cc1nnc(NS(=O)(=O)c2ccc(N)cc2)s1,-9
CCCCCC/C=C/CCCCCCCCCC(=O)O,30
CO/N=C(\C(=O)N[C@@H]1C(=O)N2C(C(=O)OC(C)OC(C)=O)=C(COC(N)=O)CS[C@H]12)c1ccco1 (stereo partly shown),-5
CCC(=O)c1c(O)cc(O)cc1O,17

# Block 4
# Organism: Sarcocystis neurona
# Effect on: parasite growth
# Concentration: 10 µM
# Time: 96 h
# Setting: first screen
Compound,inhibition [%]
Nc1ccc(O)c(C(=O)O)c1,-8.4
Nc1nc(O)c2ncn(COC(CO)CO)c2n1,-12.3
CNCC[C@@H](Oc1ccccc1C)c1ccccc1,8.1
Cc1ccc(O)c([C@H](CCN(C(C)C)C(C)C)c2ccccc2)c1,12.1
CC(=O)OCC(=O)NCCCOc1cccc(CN2CCCCC2)c1,5.9
CC(=O)OCC(=O)[C@@]1(O)CC[C@H]2[C@@H]3C[C@H](C)C4=CC(=O)C=C[C@]4(C)[C@H]3[C@@H](O)C[C@@]21C,3.3
C[C@@H]1C[C@H]2[C@@H]3CCC4=CC(=O)C=C[C@]4(C)[C@@]3(F)[C@@H](O)C[C@]2(C)[C@@]1(O)C(=O)CO,12

# Some of these lines once more (block 3):
Compound,inhibition [%]
COc1ccc(/C=C/C(=O)O[C@@H]2[C@H](O[C@@H]3O[C@@H](C)[C@H](O)[C@@H](O)[C@H]3O)[C@@H](O[C@@H]3O[C@@H](C)[C@H](O[C@@H]4OC[C@@H](O[C@@H]5O[C@H](CO)[C@H](O)[C@H](O)[C@H]5O)[C@H](O)[C@H]4O)[C@@H](O)[C@H]3O)[C@H](OC(=O)[C@]34CCC(C)(C)C[C@H]3C3=CC[C@@H]5[C@@]6(C)C[C@H](O)[C@H](O[C@@H]7O[C@H](CO)[C@@H](O)[C@H](O)[C@H]7O)[C@@](C)(C(=O)O)[C@@H]6CC[C@@]5(C)[C@]3(CO)CC4)O[C@@H]2C)cc1,27
CC(C)C(=O)OC[C@H]1O[C@@H](n2ccc(NO)nc2=O)[C@H](O)[C@@H]1O,-3
COc1c(O)cc2oc3cc4c(c(O)c3c(=O)c2c1CC=C(C)C)CCC(C)(C)O4,-19
Cc1nnc(NS(=O)(=O)c2ccc(N)cc2)s1,-9
CCCCCC/C=C/CCCCCCCCCC(=O)O,30
CO/N=C(\C(=O)N[C@@H]1C(=O)N2C(C(=O)OC(C)OC(C)=O)=C(COC(N)=O)CS[C@H]12)c1ccco1 (stereo partly shown),-5
CCC(=O)c1c(O)cc(O)cc1O,17
